Measured values collected from several papers.
Compare with care: the assays were run in different laboratories. ± marks the error that the study gave.
UniProt Q9LMA8, sequence (whole entry, looked up): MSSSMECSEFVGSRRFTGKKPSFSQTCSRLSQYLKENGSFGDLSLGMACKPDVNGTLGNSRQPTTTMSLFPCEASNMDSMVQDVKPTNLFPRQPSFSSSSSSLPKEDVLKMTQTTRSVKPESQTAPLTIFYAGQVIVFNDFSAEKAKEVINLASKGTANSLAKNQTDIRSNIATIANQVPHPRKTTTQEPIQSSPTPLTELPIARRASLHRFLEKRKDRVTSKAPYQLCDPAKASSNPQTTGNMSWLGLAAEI
UniProt O04197, sequence (whole entry, looked up): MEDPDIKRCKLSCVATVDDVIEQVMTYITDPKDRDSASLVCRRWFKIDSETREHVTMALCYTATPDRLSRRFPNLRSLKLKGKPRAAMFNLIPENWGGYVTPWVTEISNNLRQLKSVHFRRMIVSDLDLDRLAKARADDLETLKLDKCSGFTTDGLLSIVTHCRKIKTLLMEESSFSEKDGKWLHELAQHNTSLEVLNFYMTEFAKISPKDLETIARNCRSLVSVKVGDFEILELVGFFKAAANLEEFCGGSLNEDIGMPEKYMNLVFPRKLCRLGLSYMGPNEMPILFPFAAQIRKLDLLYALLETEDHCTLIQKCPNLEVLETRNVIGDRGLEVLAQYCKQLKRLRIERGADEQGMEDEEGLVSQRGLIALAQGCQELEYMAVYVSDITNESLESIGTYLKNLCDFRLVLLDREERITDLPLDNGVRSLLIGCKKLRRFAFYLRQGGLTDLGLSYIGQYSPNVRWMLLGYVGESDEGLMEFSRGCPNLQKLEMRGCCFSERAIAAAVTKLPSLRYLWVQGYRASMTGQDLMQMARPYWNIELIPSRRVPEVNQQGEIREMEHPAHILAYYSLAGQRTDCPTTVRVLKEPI

CC(C)C[C@@H]1NC(=O)[C@H](CCCNC(=N)N)NC(=O)[C@@H]2CCCN2C(=O)[C@@H]2CSSC[C@H](NC(=O)CNC(=O)[C@@H]3CCCN3C(=O)[C@H](CCCCN)NC(=O)[C@H](CC(=O)O)NC(=O)[C@@H](NC(=O)CN)C(C)C)C(=O)N[C@@H](CCCNC(=N)N)C(=O)N[C@@H](Cc3ccc(O)cc3)C(=O)N[C@@H](CC(C)C)C(=O)N[C@@H](Cc3ccccc3)C(=O)NCC(=O)NCC(=O)N[C@H]3CSSC[C@H](NC(=O)CNC1=O)C(=O)N[C@@H](CCCCN)C(=O)NCC(=O)N[C@@H](CCCCN)C(=O)NCC(=O)N[C@@H](Cc1c[nH]cn1)C(=O)N[C@@H](CC(=O)O)C(=O)N[C@@H](Cc1ccc(O)cc1)C(=O)N[C@H](C(=O)N[C@@H](C)C(=O)N[C@@H](Cc1c[nH]c4ccccc14)C(=O)N[C@@H](CC(=O)O)C(=O)NCC(=O)N[C@H](C(=O)N[C@@H](Cc1ccccc1)C(=O)N[C@@H](CO)C(=O)N[C@@H](CC(=O)O)C(=O)O)[C@@H](C)O)CSSC[C@H](NC(=O)[C@H](CC(=O)O)NC(=O)[C@H](CC(=O)O)NC(=O)[C@H](CC(=O)O)NC(=O)[C@H](CO)NC(=O)[C@H](CCCCN)NC3=O)C(=O)N2  Hill slope (Potassium voltage-gated channel subfamily B member 1 (KCNB1, Homo sapiens, UniProt Q14721); channel current, inhibitor, automated patch clamp; tsA201): 1.4
CCC1C=C(C(=O)NC2(C(=O)O)CC2CC)C2CCC(=O)C2C1 (stereo not shown)  Kd (COI1/TIFY10A, with JAZ1 (Arabidopsis thaliana, UniProt O04197+Q9LMA8); saturation binding; dialyzed COI1, with: 1 µM inositol hexakisphosphate): 37 ± 8 nM
NTCP I29V (Macaca fascicularis)  binding relative to WT (preS1 fragment, N-myristoyl, TAMRA label (hepatitis B virus); preS1-TAMRA fluorescence; HepG2; read off a plot; relative to: human NTCP WT, higher = more preS1 binding): 0.1 fold
C=C1C[C@](OC)([C@H](O)C(=O)NC[C@@H]2C[C@@H](OC)C(C)(C)[C@@H](C[C@@H](COC)OC)O2)O[C@H](C)[C@@H]1C  IC50 (B16; cell viability, sulforhodamine B; 72 h, 37 °C, without H2O2): 2 ± 2 nM

Excerpt of the above:
NTCP I29V (Macaca fascicularis)  binding relative to WT (preS1 fragment, N-myristoyl, TAMRA label (hepatitis B virus); preS1-TAMRA fluorescence; HepG2; read off a plot; relative to: human NTCP WT, higher = more preS1 binding): 0.1 fold
